Experimental data pooled from the literature.
A part holds a random share of what one study measured.

Block 1
Target: Sal-like protein 4, full length isoform B (SALL4, Homo sapiens, UniProt Q9UJQ4-2, residues 1-616)
Method: universal PBM
Form: double-stranded DNA, one strand shown
Medium: in vitro
Concentration: not given
Notes: 8-mer, flanks averaged, mean of replicates
Reading: higher = stronger binding
Construct (chain): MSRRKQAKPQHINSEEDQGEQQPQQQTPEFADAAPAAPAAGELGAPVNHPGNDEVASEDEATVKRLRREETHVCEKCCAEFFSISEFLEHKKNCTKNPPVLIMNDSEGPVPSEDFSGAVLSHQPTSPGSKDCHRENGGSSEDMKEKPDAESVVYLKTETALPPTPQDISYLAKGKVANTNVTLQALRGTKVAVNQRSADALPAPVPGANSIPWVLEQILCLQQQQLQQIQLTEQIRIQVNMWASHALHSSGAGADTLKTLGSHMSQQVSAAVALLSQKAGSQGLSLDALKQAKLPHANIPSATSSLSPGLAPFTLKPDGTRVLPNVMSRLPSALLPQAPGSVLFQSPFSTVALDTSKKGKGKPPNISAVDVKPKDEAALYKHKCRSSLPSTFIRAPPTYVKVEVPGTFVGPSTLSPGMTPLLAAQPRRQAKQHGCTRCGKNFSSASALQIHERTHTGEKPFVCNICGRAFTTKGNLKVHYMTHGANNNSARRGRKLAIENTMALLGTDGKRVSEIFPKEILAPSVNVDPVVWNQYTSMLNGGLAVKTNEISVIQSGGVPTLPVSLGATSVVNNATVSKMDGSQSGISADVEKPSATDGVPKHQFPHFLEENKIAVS
| Strand | E-score |
| --- | --- |
| TACCCTAA | -0.016 |
| CACACGAC | -0.052 |
| AAGATATC | 0.132 |
| ATGTTTCA | 0.283 |
| TGATTACA | 0.241 |
| TCAAGGCA | -0.0433 |
| AGCTATTG | 0.0722 |
| AAAGGGCG | -0.148 |

Block 2
Target: Replicase polyprotein 1ab, polymerase (rep, Severe acute respiratory syndrome coronavirus 2, UniProt P0DTD1)
Effect on: enzyme activity
Action: inhibitor
Concentration: 20 µM
| SMILES | inhibition [%] |
| --- | --- |
| CN1C(C(=O)Nc2ccccn2)=C(O)c2sc(Cl)cc2S1(=O)=O | 2.9 |
| CCOC(=O)Nc1nc2ccccc2[nH]1 | -16.8 |
| COC(=O)C1=C(C)NC(C)=C(C(=O)OC(C)(C)CN(C)CCC(c2ccccc2)c2ccccc2)C1c1cccc([N+](=O)[O-])c1 (centres unmarked) | -2.96 |
| O=C1OCCN1/N=C/c1ccc([N+](=O)[O-])o1 | 17.2 |
| C1COC(NC(C2CC2)C2CC2)=N1 | -1.43 |
| O=C(O)/C=C/CO | -2.45 |
| CC(C)(C)C1CCc2c(sc(NC(=O)c3ccco3)c2C(=O)O)C1 (centres unmarked) | 31.2 |
| C[N+]1(CC2CC2)[C@@H]2C[C@@H](OC(=O)[C@H](CO)c3ccccc3)C[C@H]1[C@@H]1O[C@@H]12 (some centres unmarked) | -0.5 |
| O=C(O)COc1cccc(CN(Cc2ccc(-n3cccn3)cc2)S(=O)(=O)c2cccnc2)c1 | 2.24 |
| Cc1nc(Nc2n[nH]c3c2CN(C(=O)N[C@H](CN(C)C)c2ccccc2)C3(C)C)c2sccc2n1 | 16.8 |
| COc1cc(OC)c(C(=O)CCCN2CCCC2)c(OC)c1 | -2.33 |
| CCOC(=O)[C@@]1(CCCCCCOc2ccc(Cl)cc2)CO1 | -2.85 |
| CCOC(=O)c1cnc[nH]1 | 3.13 |
| CCCN(CCC)C(=O)C(CCC(=O)O)NC(=O)c1ccccc1 (centres unmarked) | 27.6 |

Block 3
Cell line: HEK-293T/ACE2
Concentration: concentration not given
Time: 16 (unit not given)
Baseline: vehicle
| SMILES | viability [%] |
| --- | --- |
| C[C@]1(O)CC[C@H]2[C@@H]3CCC4=CC(=O)CC[C@]4(C)[C@@]3(F)[C@@H](O)C[C@@]21C | 102 |
| CC[C@]1(O)C[C@@H]2CN(CCc3c([nH]c4ccccc34)[C@@](C(=O)OC)(c3cc4c(cc3OC)N(C)[C@H]3[C@@](O)(C(=O)OC)[C@H](OC(C)=O)[C@]5(CC)C=CCN6CC[C@]43[C@@H]65)C2)C1 | -0.0317 |
| NC(=O)N1c2ccccc2CC(=O)c2ccccc21 | 98.1 |
| CC[C@@H](C(N)=O)N1CCCC1=O | 107 |
| COc1c(N2CCNC(C)C2)c(F)cc2c(=O)c(C(=O)O)cn(C3CC3)c12 (centres unmarked) | 97.9 |

Block 4
Target: Histone acetyltransferase KAT6A, winged helix 1, GST fusion (KAT6A, Homo sapiens, UniProt Q92794, residues 1-85)
Method: protein binding microarray
Form: double-stranded DNA, one strand shown
Medium: in vitro
Concentration: not given
Notes: 8-mer, flanks averaged, mean of 2 arrays, mostly near background
Baseline: not given
Reading: higher = stronger binding
Construct (chain): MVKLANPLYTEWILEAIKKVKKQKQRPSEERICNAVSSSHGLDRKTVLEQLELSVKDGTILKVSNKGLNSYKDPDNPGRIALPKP
| Strand | E-score |
| --- | --- |
| GTATACCA | -0.0929 |
| CCGCCTGC | 0.275 |
| ATATTTCG | -0.163 |
| AGAAGTAC | -0.0666 |
| AGACTACA | -0.0676 |
| CCGGCGCC | 0.456 |
| CGTCCATC | 0.0131 |
| TACTAGCA | -0.0918 |

A few entries again (block 3):
| SMILES | viability [%] |
| --- | --- |
| C[C@]1(O)CC[C@H]2[C@@H]3CCC4=CC(=O)CC[C@]4(C)[C@@]3(F)[C@@H](O)C[C@@]21C | 102 |
| CC[C@]1(O)C[C@@H]2CN(CCc3c([nH]c4ccccc34)[C@@](C(=O)OC)(c3cc4c(cc3OC)N(C)[C@H]3[C@@](O)(C(=O)OC)[C@H](OC(C)=O)[C@]5(CC)C=CCN6CC[C@]43[C@@H]65)C2)C1 | -0.0317 |
| NC(=O)N1c2ccccc2CC(=O)c2ccccc21 | 98.1 |
| CC[C@@H](C(N)=O)N1CCCC1=O | 107 |
| COc1c(N2CCNC(C)C2)c(F)cc2c(=O)c(C(=O)O)cn(C3CC3)c12 (centres unmarked) | 97.9 |
